Published values from different studies.
Parts stem from different laboratories: compare values within a part only.

Sample 1
Target: Histone acetyltransferase KAT6A, winged helix 1, GST fusion (KAT6A, Homo sapiens, UniProt Q92794, residues 1-85)
Method: protein binding microarray
Molecule type: double-stranded DNA, one strand shown
Sample: in vitro
Concentration: not given
Notes: 8-mer, flanks averaged, mean of 2 arrays, mostly near background
Reference: not given
Direction: higher = stronger binding
Residues (chain): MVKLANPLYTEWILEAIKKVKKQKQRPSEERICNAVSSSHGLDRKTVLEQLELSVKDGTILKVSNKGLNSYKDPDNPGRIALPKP
Sequence	E-score
AGATATAA	-0.0533
CACACACC	-0.137
CCGACGGA	0.462
GCTAATCC	0.0546
CTTGCTGC	-0.0678
ACTATAGA	-0.0917
TATCCGCA	0.176
GAATTTCA	-0.138
AAAGCATG	-0.091
ACGGCTAT	0.327
AAGTTAGT	-0.00383
AGTAATAG	-0.00029
ATGGCGCG	0.287
ACCAGGAT	-0.117
GAAATTAA	-0.101
ACCGCGGG	0.443
CGCACCAC	0.0923

Sample 2
Target: RNA binding protein fox-1 homolog 2, RRM domain, GST-SBP tag (RBFOX2, Homo sapiens, UniProt O43251-10, residues 100-194)
Method: RNA Bind-n-Seq
Molecule type: RNA
Sample: in vitro
Concentration: 365 nM
Notes: natural RNA segment, single round, ends assumed
Reference: no-protein control
Direction: higher = stronger binding
Constant ends, left off below: GGGAGUUCUACAGUCCGACGAUC … UGGAAUUCUCGGGUGCCAA
Residues (chain): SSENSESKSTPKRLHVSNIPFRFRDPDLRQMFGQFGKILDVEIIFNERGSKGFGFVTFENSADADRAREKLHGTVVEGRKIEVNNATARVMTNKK
Sequence	RBNS enrichment (R)
UGUUAGUUGACAGUUGUGGGCUCAUGUAGUCUUUUUUGCCAUGAGUAGGAGCCCCUAGUGGGGCUGGUGGACAGCUUUGGAAGAGGUGUCCUGCUGCUGUUACCAGCCAU	0.518
AAAGGACAGGUAUGAUGAUGCGAUAAUAAUAAACAUCUGCGUUUGUCUCUUCACUAAGAGUAAACUGGGAAAUUGUAGGCCAAAGUCCAGUUGAACUUUCUAAGUCUGUG	0.374
CCAUAAUGCAUCAUUUGAAAAACAAAAACACCUGCCUACUUUACAUUAACAUGGUAAAGAUUGUAUGAAAUACCUGUUUUUCAAAAAAAUAAAAAUAAAGGUUCAAGUCU	0.794
GUUGCUACUGUUCAUAGAACUGGGACUGGGAAUGUUUUCAGGUUGAUGGACUUUUUCAAGCUCAAAGUUAUGUUCCCAGACUAUCCUCACCCUUCCCCUAGUUUUGCUGA	0.355
GAGGAGACUUCCAGGAAGACACGUGCCUUCUGCCCCCGUGGACCUGCGCUCCUCCCAACACAGACGCAGUGGCCUGCGCAGAGCACUCAGGGCCAGUGCCAUCUGUGAUU	0.328
AGACAGCAUUCCUCGGGAACCCGUGAAACUGGUUCUCUCUCUACCAAAUGGAGUCAUUCUCCUUACUUCUGGCAGAAGGGUCAUAGCUCUCCCAGUAGUAGACCUGUGGU	0.23
UCUUGGACCAGGGCUUGCAAGGCGAUUUGGGUUUCUGUGAGCUUGCCCAGUUGACCCGAAAAAUAGGACUUUUUAGAAUUGCAUUGCCACUUCUAAAAUCCUAGCAAUAC	0.34
AGAUGCCAGCAAGGAUGGAAGCAUCAGGCUCACAGGUGUGUGUGUGUGUGUGCACGCGUUCGCACAUGCGUGAGUGUGUAGCAGAAGUGUGUACAGAGAGGCCCGUGCUA	0.45
GUGAGCAUCGCAGUAGCCAGCCACAGAAGCUAACAAGCCUUGAACCACUCUGGUGGCCACACAGCGCCUCAGAGAGCAUUCUGGGAAGUGCCUGUUUCCGAGGAACCCUG	0.345
GCCAUCUUCUGUUACCAUAUGGUGUUGAAUGCAAGUUUAAUUACCAUGGAGAUUGUUUUACAAACUUUUGAUGUGGUCAAGUUCAGUUUUAGAAAAGGGAGUCUGUUCCA	0.308
ACCAAAGGAACAAACUCCUUGGUGAAUCUGGAGUUCAGCUUUAGUUUUCAAACACAAUCUGAAAUCUGUUAGUAAAAUGAAUUCUGGGUAAAAAUGAGACUCAAGAGGCA	0.501
AUUACAAUUGCAAAUCUUUACUUACAGGAGAGGAAACAGAAGAGAUAAAAACUUUUCCAUGCAAAUAUCUAUUUCUAAACCACAAUGAUCUGAUUUUCUUUCUUCUUUCU	0.415

Sample 3
Target: Phosphate system positive regulatory protein PHO4, full length, GST-tagged (PHO4, Saccharomyces cerevisiae, UniProt P07270, residues 1-312)
Method: competition protein-binding microarray
Molecule type: double-stranded DNA, one strand shown
Sample: in vitro
Concentration: 2 µM
Notes: whole 60-bp probe, lowest competitor level
Together with: Cbf1 competitor, 0.05 µM
Direction: higher = stronger binding
Constant ends, left off below: … GTCTTGATTCGCTTGACGCTGCTG
Target sequence (chain): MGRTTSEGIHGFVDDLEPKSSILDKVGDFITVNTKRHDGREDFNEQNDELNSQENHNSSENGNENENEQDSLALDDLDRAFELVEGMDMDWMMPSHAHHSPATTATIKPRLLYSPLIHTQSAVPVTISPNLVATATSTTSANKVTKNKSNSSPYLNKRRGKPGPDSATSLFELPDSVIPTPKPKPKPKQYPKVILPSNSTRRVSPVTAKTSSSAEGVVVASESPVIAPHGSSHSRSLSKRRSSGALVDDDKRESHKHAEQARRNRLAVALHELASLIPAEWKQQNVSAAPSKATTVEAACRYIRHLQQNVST
Sequence	fluorescence intensity
CGTCCTAGTGATTGGCACGTGTTTTCCATGAGGAAG	17600 a.u.
CGGGGTTAAGTTTTTCACGTGTACTGCTTGCAGCAG	10500 a.u.
ACGGGAATATGGTCTTCTGCGATAGCTAGTAGAGAA	3970 a.u.
CTTCTGTAAATTTGGAACGTGGGTGGACGCGCCCCG	14400 a.u.
TGGGACAAAAATGATACCGTGATGGGCCAAAGTAGA	4000 a.u.
CATACCCAACCTTGTCTAGTGGGTGAAGATATTTGT	4020 a.u.
GTCTTGTCTCATTGACCTGTGGGTGTCCCCACTTCA	5250 a.u.
AGCAGTATGAACATTCGCGTGTCGGTTATAGTTGGT	7900 a.u.
CATCTAACTTTTTTGCACGTGAATTGGATCTTGAGT	14500 a.u.
CGGGGTTAAGTTTGCACGGTGGGTGGCTTGCAGCAG	8180 a.u.
CTTTCCCGATCTTTTCACGTGCTCTTAGCACATTTG	16100 a.u.
CGTCCTAGTGATTTTCACGTGCCCTCCATGAGGAAG	15600 a.u.
CTTTCCCGATCTTGTCACACCACTTTAGCACATTTG	5670 a.u.
AAATTACTAAGTTTTCACGTGATGTACCCCGTATGA	13100 a.u.
TGAAAATTAGACTGTCATGTGATGAGTAATATCGTC	6470 a.u.
CGCTTAACATATTCCCATGTGGTTTATTTTCGTATA	10000 a.u.
TCTACTGAAATATCGCACGTCACCGGTACCAACGGC	5440 a.u.
GCATCAGATTCTTGTCATGCTTGTTCAATATACATC	4480 a.u.
CAACCAACTGACGAAACCGTGATGGTCATTAGAACT	5480 a.u.
CGGGGTTAAGTTTGGCACGTGTTTTGCTTGCAGCAG	13200 a.u.

Sample 4
Target: Interferon regulatory factor 5, full length, phosphomimetic (IRF5, Homo sapiens, UniProt Q13568-2, residues 1-514, K96S/S451D/S453D/S456D/S462D)
Method: protein-binding microarray
Molecule type: double-stranded DNA, one strand shown
Sample: in vitro
Concentration: 250 nM
Notes: 60-bp whole probe
Together with: salmon DNA 0.4 mg/ml
Reference: random background probes
Direction: higher = stronger binding
Constant ends, left off below: GCCTAGCAC … GTCTTGATTCGCTTGACGCTGCTG
Sequence	log fluorescence [z-score]
GACGATATCGGGACTGGAGAGGTGCTA	0.831
CTAAATATCTTTGTTGAAAAGTGCTAG	0.726
GACGAACTGGGACTGGAGACGTGCTAG	-0.426
GGGAGATGACTAAGAGGGGTGTGCTAG	-0.263
TCATGTTGCAGACTCGAACTGTGCTAG	0.0711
GACGGACTGGGTCTCGGGATGTGCTAG	-0.51
TCACCTCTACCTCCTGGGACTGTGCTA	-0.14
TTAGGTATCGGTCTCGGTTCGTGCTAG	6.82
TTAGAACTGGGGTTGCGATTAGTGCTA	0.216
TTAGGTTTCGGGACTGTGTTAGTGCTA	6.16
TTTGGTATCGACACTGGGTTAGTGCTA	4.3
TGTACTCTCTCCATGTGTTTGTGCTAG	0.35
ATCCCGCCTGCCCCACAGAAGTGCTAG	-0.39
GACGGACTGGGACTGGGCACGTGCTAG	-0.614
AAGTGTTTCTCAACCAGTTTGTGCTAG	0.456
TTAGAAATCGGGTATCGATTAGTGCTA	4.74
GACGGTATACTTATCCTGACGTGCTAG	0.0482
GACGGTATCGGGTATCTGGACGTGCTA	2.64
GACGGTCTCGGTTTCGGGTCGTGCTAG	5.27
TCATTTCTCTTTCACTAACTGTGCTAG	6.64
GGAAATTCTCATTTCCAATTGTGCTAG	0.68

Excerpt of the above (sample 3):
Sequence	fluorescence intensity
CATACCCAACCTTGTCTAGTGGGTGAAGATATTTGT	4020 a.u.
GTCTTGTCTCATTGACCTGTGGGTGTCCCCACTTCA	5250 a.u.
AGCAGTATGAACATTCGCGTGTCGGTTATAGTTGGT	7900 a.u.
CATCTAACTTTTTTGCACGTGAATTGGATCTTGAGT	14500 a.u.
CGGGGTTAAGTTTGCACGGTGGGTGGCTTGCAGCAG	8180 a.u.
CTTTCCCGATCTTTTCACGTGCTCTTAGCACATTTG	16100 a.u.
CGTCCTAGTGATTTTCACGTGCCCTCCATGAGGAAG	15600 a.u.
CTTTCCCGATCTTGTCACACCACTTTAGCACATTTG	5670 a.u.
AAATTACTAAGTTTTCACGTGATGTACCCCGTATGA	13100 a.u.
TGAAAATTAGACTGTCATGTGATGAGTAATATCGTC	6470 a.u.
CGCTTAACATATTCCCATGTGGTTTATTTTCGTATA	10000 a.u.
